Measurements from different studies.
Parts stem from different laboratories: compare values within a part only. Substitutions count along the parent as printed.
UniProt P05771, sequence (whole entry, looked up): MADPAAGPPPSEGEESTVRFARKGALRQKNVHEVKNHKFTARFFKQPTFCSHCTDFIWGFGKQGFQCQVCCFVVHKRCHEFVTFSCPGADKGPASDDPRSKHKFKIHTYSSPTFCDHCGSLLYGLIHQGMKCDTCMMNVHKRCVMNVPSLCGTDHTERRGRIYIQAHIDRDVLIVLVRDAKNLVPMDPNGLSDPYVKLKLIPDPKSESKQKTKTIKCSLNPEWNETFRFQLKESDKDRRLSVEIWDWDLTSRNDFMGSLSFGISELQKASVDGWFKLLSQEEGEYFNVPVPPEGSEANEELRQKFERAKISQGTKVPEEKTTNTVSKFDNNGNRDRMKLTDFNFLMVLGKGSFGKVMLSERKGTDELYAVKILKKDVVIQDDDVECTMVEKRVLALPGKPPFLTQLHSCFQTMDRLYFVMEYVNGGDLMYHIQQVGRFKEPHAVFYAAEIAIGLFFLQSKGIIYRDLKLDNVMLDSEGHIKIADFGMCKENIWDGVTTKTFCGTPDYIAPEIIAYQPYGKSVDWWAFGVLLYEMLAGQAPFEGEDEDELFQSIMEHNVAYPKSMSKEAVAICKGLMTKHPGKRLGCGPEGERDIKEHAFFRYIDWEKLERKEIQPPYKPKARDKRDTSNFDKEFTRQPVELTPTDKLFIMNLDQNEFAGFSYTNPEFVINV

Study 1
Target: TAR DNA-binding protein 43, full length, His tag (TARDBP, Homo sapiens, UniProt Q13148, residues 1-414)
Method: RNA Bind-n-Seq
Form: RNA
Matrix: in vitro
Tested at: 20 nM
Notes: 6-mer, flanks averaged, single round
Together with: 150 mM KCl
Baseline: input library
Direction: higher = stronger binding
Under “6-mer enrichment (R)”, `GUCCCA` is recorded as 0.669.
Under “6-mer enrichment (R)”, `CGAUAA` is recorded as 0.63.
`UACUAU`: “6-mer enrichment (R)” 0.57.
For `AUUGUG`, “6-mer enrichment (R)” read 0.872.
`GCCCCG` — result for “6-mer enrichment (R)”: 0.781.
`CACAUU` — result for “6-mer enrichment (R)”: 0.621.
Under “6-mer enrichment (R)”, `UUGAUA` is recorded as 0.64.
`GAGGAC` — result for “6-mer enrichment (R)”: 1.47.

Study 2
Target: CCNE2, cyclin fold, Cln2 fusion (human)
Method: yeast growth competition, sequencing
Matrix: yeast
Notes: strong parent motif
Baseline: not given
Direction: higher = stronger binding
Parent: CDKN1A docking peptide (human); SKACRRLFGPVDS
Under “normalised enrichment score”, `SCACRRLFGPVDS [K2C]` is recorded as 2.56.
Under “normalised enrichment score”, `SKACRRLMGPVDS [F8M]` is recorded as 0.359.
For `SKARRRLFGPVDS [C4R]`, “normalised enrichment score” read 4.87.
`SKACSRLFGPVDS [R5S]` — result for “normalised enrichment score”: 0.105.
For `SKACMRLFGPVDS [R5M]`, “normalised enrichment score” read 0.213.
`SKACRRLFDPVDS [G9D]`: “normalised enrichment score” 4.5.
Under “normalised enrichment score”, `SKATRRLFGPVDS [C4T]` is recorded as 1.25.
Under “normalised enrichment score”, `SKACRRLFGSVDS [P10S]` is recorded as 3.88.

Study 3
Target: Max dimerization protein 1, bHLH-zipper, MAX partner unstated (MXD1, Homo sapiens, UniProt Q05195, residues 56-136)
Method: protein-binding microarray
Form: double-stranded DNA, one strand shown
Matrix: in vitro
Tested at: not given
Notes: k-mer, scored over probes, only values ≥0.25
Direction: higher = stronger binding
Target sequence (chain): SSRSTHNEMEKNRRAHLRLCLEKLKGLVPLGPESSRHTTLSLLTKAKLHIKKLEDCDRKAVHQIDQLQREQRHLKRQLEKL
`AGCGTGCG` gave an E-score of 0.359.
For `CGTGTAAA`, the E-score was 0.321.
`CCCCAAGC` gave an E-score of 0.257.
The E-score of `CCGTGCAC` is reported as 0.283.
`CATATGTC` gave an E-score of 0.26.
The E-score of `ATGCGAGG` is reported as 0.266.
The E-score of `CACGATGA` is reported as 0.324.
For `AACACGCT`, the E-score was 0.367.

Further values, each from its own experiment
With O=C1Nc2ccc(Cl)cc2C1=Cc1cc(Cl)c(O)c(Cl)c1 the remaining activity was 97.3% (Protein kinase C beta type, isoform beta-I (PRKCB, Homo sapiens, UniProt P05771); enzyme activity, inhibitor; 0.5 µM; baseline: control).

Repeated from above (further values, each from its own experiment):
With O=C1Nc2ccc(Cl)cc2C1=Cc1cc(Cl)c(O)c(Cl)c1 the remaining activity was 97.3% (Protein kinase C beta type, isoform beta-I (PRKCB, Homo sapiens, UniProt P05771); enzyme activity, inhibitor; 0.5 µM; baseline: control).
